Published values pooled from the literature.
Protocols differ between the studies behind these lines. Values joined by “and” are separate records of one study, mostly repeats; a detail may differ.
Target: Serine/threonine-protein kinase MARK2 (MARK2, Homo sapiens, UniProt Q7KZI7)

Compound | test | system | conditions | scale | quantity | result
C=CC(=O)Nc1cccc(-c2cnc3[nH]cc(C(=O)NC(C)(C)C)c3n2)c1 | kinase activity |  | 0.1 µM |  | inhibition | 43% and 41%
O=c1c(-c2ccc(Cl)c(CN3CCOCC3)c2)coc2cc(O)ccc12 | enzyme activity, inhibitor |  | 1 µM |  | remaining activity | 107%
Cc1cnc2nc1Nc1cccc(c1)COC/C=C/COCc1cc(ccc1OCCN1CCOCC1)N2 | binding |  | 0.1 µM |  | remaining binding | 70%
CCN1CCN(Cc2ccc(C(=O)Nc3ccc(C)c(NCc4cnc5[nH]ccc5c4OC)c3)cc2C(F)(F)F)CC1 | binding, competition with immobilised ligand |  | 1 µM |  | remaining binding | 100%
O=C=[N][Ru-4]123([n]4c5ccc(O)cc5c5c6c(c7cc(F)c[n+]1c7c54)C(=O)NC6=O)[S+]1CC[S+]2CC[S+]3CC1 (stereo not shown) | enzyme activity |  | 100 nM, human enzyme, with: 10 µM ATP | baseline: untreated | remaining activity | 54%
CN1CC[C@@H](COc2cnc(C#N)cc2-c2ccn3nc(NC(=O)C4CC4)cc3c2)C1 | enzyme activity, inhibitor |  | 1 µM |  | inhibition | 9%
CNC(=O)C[C@H](Cc1ccc(C#N)cc1)NC(=O)c1cc(-c2ccc(CN[C@H](C)c3ccc(C)cc3)o2)ccc1Cl | enzyme activity, inhibitor |  | 1 µM |  | activity vs control | 102%
COc1cc(Nc2nc(C)cc(-c3cnn4nc(OC)ccc34)n2)cc(C(F)(F)F)c1 | inhibitor |  | 1 µM | baseline: control | remaining activity | 77%
NC(=O)C[C@H]1CCc2sc3ncnc(O[C@H]4CC[C@H](N5CCOCC5)CC4)c3c21 | enzyme activity, inhibitor |  | 10 µM |  | inhibition | -3%
C=CC(=O)N1Cc2nc(-c3cc(-c4cc(Cl)cnc4Cl)c(F)cc3F)n(-c3ccncn3)c2C1 | cell-free assay, inhibitor |  | 1 µM |  | inhibition | 4.5%
C=CC(=O)N1CCCC(n2c(=O)c3ncccc3n(Cc3ccc(Oc4ccccc4)cc3)c2=O)C1 (stereo not shown) | cell-free assay, competition with immobilised ligand |  | 1 µM |  | remaining binding | 94%
Nc1ncc2c(n1)-c1c([nH]c3ccc(C4=CCOCC4)cc13)CCC2 | binding, competition with immobilised ligand |  | 1 µM |  | remaining binding | 89%
O=C(Cc1ccc(OCc2ccccc2)cc1)NC1(C(=O)O)CCN(C(=O)c2ccc(-c3cccc(Cl)c3)cc2)CC1 | enzyme activity, inhibitor |  | 10 µM |  | activity vs control | 102%
CS(=O)(=O)Nc1cccc(-c2csc3cnc(Nc4ccc(N5CCN(CCCCCOc6cccc7c6C(=O)N(C6CCC(=O)NC6=O)C7=O)CC5)cc4)nc23)c1 (stereo not shown) | probe labelling, inhibitor, KiNativ chemoproteomics | MOLT-4 | 1 µM |  | inhibition | 5.77%
Cc1cccc(O[C@H]2CCC[C@@H](C(C)CNCc3ccncc3)C2)c1 (relative stereo) | enzyme activity, inhibitor |  | 10 µM |  | inhibition | 10%
COc1c(OCCCN2CCOCC2)ccc2c1N=C(NC(=O)c1cnc(N)nc1)N1CCN=C21 | kinase activity, inhibitor |  | 1 µM | baseline: untreated control | remaining activity | 92%

Some of these lines once more:
Compound | test | system | conditions | scale | quantity | result
CNC(=O)C[C@H](Cc1ccc(C#N)cc1)NC(=O)c1cc(-c2ccc(CN[C@H](C)c3ccc(C)cc3)o2)ccc1Cl | enzyme activity, inhibitor |  | 1 µM |  | activity vs control | 102%
